Earlier results that unrelated publications cite.
± gives the spread as reported.

| SMILES | tested on | assay | system | conditions | scale | measurement | value |
| --- | --- | --- | --- | --- | --- | --- | --- |
| C=CC(N)=O | – | reaction with 3-mercaptopropionic acid | – | pH 8.1, 30 °C | – | second-order rate constant | 0.0046 M⁻¹ s⁻¹ |
| c1c[nH]cn1 | sperm whale myoglobin L29F, met form | – | – | pH 7 | – | apparent association rate constant | 120 M⁻¹ s⁻¹ |
| Cc1c(CN(C)C(=O)/C=C/c2cnc3c(c2)CCC(=O)N3)oc2ccccc12 | Staphylococcus aureus FabI | inhibitor | – | – | – | Ki | 0.0128 ± 0.0005 µM |
| [N-]=[N+]=NCCCCCCCCCCCC(=O)OCC1OC(n2ccc(N)nc2=O)CS1 (stereo not drawn) | HIV | – | – | concentration not given, cell-free virus, at least | reference: lamivudine | anti-HIV activity fold | 16 to 36 fold |
| CN1COCN(Cc2cnc(Cl)s2)/C1=N\[N+](=O)[O-] | – | – | test soil | 0.37 mg/kg nominal, 28 days | – | measured soil concentration | 0.27 mg/kg dry soil |
| CCC(=O)n1cc2c3c(cccc31)C1=C[C@@H](C(=O)N(CC)CC)CN(C)[C@@H]1C2 | – | head-twitch response, agonist | C57BL/6J mice male | literature value | – | ED50 | 350 nmol/kg |
| OCCN1CCN(CCC=C2c3ccccc3Sc3ccc(C(F)(F)F)cc32)CC1 | MCF7 | microarray, measured: STX5 mRNA | – | concentration not given | reference: DMSO | log2 fold change | 1.05 |
| CCN(CC)C(=O)[C@@H]1C=C2c3cccc4c3c(cn4C(=O)C3CC3)C[C@H]2N(C)C1 | – | head-twitch response, agonist | C57BL/6J mice male | literature value | – | ED50 | 430 nmol/kg |
| C[C@]12C=CC(=O)C=C1C(CSC[C@H](N)C(=O)O)C[C@@H]1[C@@H]2CC[C@]2(C)C(=O)CC[C@@H]12 (stereo partly drawn) | aromatase | estrone formation | – | – | reference: compound over exemestane | IC50 ratio | ~12 fold |

Some of these lines once more:
| SMILES | tested on | assay | system | conditions | scale | measurement | value |
| --- | --- | --- | --- | --- | --- | --- | --- |
| CCC(=O)n1cc2c3c(cccc31)C1=C[C@@H](C(=O)N(CC)CC)CN(C)[C@@H]1C2 | – | head-twitch response, agonist | C57BL/6J mice male | literature value | – | ED50 | 350 nmol/kg |
